# Results collected from several papers.
# Each line is one published result; not all experiments were run side by side. Numbers after ± are the reported error.
# Chain of UniProt P06276 (whole entry, looked up): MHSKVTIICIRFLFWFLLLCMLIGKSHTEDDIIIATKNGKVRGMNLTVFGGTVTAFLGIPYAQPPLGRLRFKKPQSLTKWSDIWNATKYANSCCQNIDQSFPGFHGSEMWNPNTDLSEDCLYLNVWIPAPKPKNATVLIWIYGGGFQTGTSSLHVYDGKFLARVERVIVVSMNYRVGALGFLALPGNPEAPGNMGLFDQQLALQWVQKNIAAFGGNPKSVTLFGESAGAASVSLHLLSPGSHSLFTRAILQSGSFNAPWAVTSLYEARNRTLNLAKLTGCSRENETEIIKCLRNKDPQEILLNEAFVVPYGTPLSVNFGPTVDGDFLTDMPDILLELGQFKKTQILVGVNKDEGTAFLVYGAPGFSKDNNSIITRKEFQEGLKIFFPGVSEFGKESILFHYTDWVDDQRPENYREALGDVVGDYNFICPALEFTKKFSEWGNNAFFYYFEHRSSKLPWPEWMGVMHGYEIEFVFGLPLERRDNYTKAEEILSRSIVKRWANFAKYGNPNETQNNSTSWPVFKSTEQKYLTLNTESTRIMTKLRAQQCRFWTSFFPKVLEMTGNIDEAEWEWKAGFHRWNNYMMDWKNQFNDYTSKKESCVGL
Structure (SMILES),tested on,test,test system,conditions,how to read,measurement,result
CN1CCN(c2ccc(Nc3nccc(-c4ccnc(NCc5ccccc5)c4)n3)cc2C(F)(F)F)CC1,,,zebrafish embryos,"50 µM, 5 d",,toxicity,5.6 ± 5.6%
CNCCC(Oc1ccccc1OC)c1ccccc1 (centres unmarked),Plasmodium falciparum,,3D7,,,IC50,12.6 µM
O=C(CN1C2=NCCN2c2ccccc21)c1ccc(-c2ccccc2)cc1,"Cholinesterase (BCHE, Homo sapiens, UniProt P06276)","inhibitor, fluorometric",,,,IC50,9.8 ± 1.83 µM
CCN(CCO)CCCC(C)Nc1ccnc2cc(Cl)ccc12 (centres unmarked),,,newly diagnosed glioblastoma patients,"oral, 400 mg/dose, grade 1, together with: radiotherapy and temozolomide",,anemia patients,29%
CC[C@H]1[C@@H](O)[C@@H]2[C@H](CC[C@]3(C)[C@@H]([C@H](C)CCNC(=O)NS(=O)(=O)c4ccc(C(C)(C)C)cc4)CC[C@@H]23)[C@@]2(C)CC[C@@H](O)C[C@@H]12,,,human,"dose not given, with oral contraceptive",,subjects with TEAEs,45.2%
O=C(O)CCCOc1ccc(F)cc1-c1cc(-c2ccccc2C(F)(F)F)n(-c2ccccc2)n1,,item: Glu,"Crl:CD(SD) rats, female, blood","iv, 25 µg/kg, 14 days",,blood chemistry,123 ± 17.8 mg/dL
CC(=O)c1c(C)c2cnc(Nc3ccc(C4CCN(CCS(C)(=O)=O)CC4)cn3)nc2n(C2CCCC2)c1=O,,,"human, plasma","oral, 25 mg once daily, day 1, single dose",,elimination rate constant,3.33e-05 s⁻¹
CO[C@H]1C[C@@H]2CC[C@@H](C)[C@@](O)(O2)C(=O)C(=O)N2CCCC[C@H]2C(=O)O[C@H]([C@H](C)C[C@@H]2CC[C@@H](OC(=O)NCCOCCOCCOCCOCCOCCOCCOCCOCCC(=O)N3CCc4cc(Cn5nc(-c6ccc7oc(N)nc7c6)c6c(N)ncnc65)ccc4C3)[C@H](OC)C2)C[C@@H](O)[C@H](C)/C=C(\C)[C@@H](O)[C@@H](OC)C(=O)[C@H](C)C[C@H](C)/C=C/C=C/C=C/1C,,,patients with advanced solid tumours,"intravenous, dose not given, grade ≥3",,Fatigue AE leading to dose reduction,0%
CCN1[C@@H](C(=O)NC23CCC(C(=O)O)(CC2)CC3)[C@H](c2cccc(Cl)c2F)[C@]2(C(=O)Nc3cc(Cl)ccc32)C12CCCCC2,,,patients with advanced solid tumours,"oral, 200 mg",,Anemia incidence,50%
CCN1CCN(Cc2ccc(Nc3ncc(F)c(-c4cc(F)c5nc6n(c5c4)[C@H](C)CCC6)n3)nc2)CC1,,,patients with advanced solid tumours,"dose not given, phase Ia monotherapy",,decreased appetite any grade,20.8%
COc1cc2c(Oc3ccc4[nH]c(C)cc4c3F)ccnc2cc1OCC1(N)CC1,,,paediatric recurrent refractory sarcoma,8 mg/kg,,grade 3 Fever,0%
Nc1nccc2c1ncn2[C@@H]1O[C@H](CO)[C@@H](O)[C@H]1O,Plasmodium falciparum,,3D7,,,IC50,5.01 µM
c1ccc2cc3c(cc2c1)-c1cccc2cccc-3c12,,,fresh water,"12 (unit not given), 20 °C, S100 sampler, 100 µm",,log K(PDMS-water),5.22 ± 0.01
COc1cc(Nc2ncc(F)c(Nc3ccc4c(n3)NC(=O)C(C)(C)O4)n2)cc(OC)c1OC,,,PBS,"24 h, pH 7.4, 1% DMSO",,solubility,1.3 µM
Cc1cc(C)c(CNC(=O)c2cc(Cl)c3c(c2C)O[C@@](C)([C@H]2CC[C@H](N(C)C)CC2)O3)c(=O)[nH]1,,,"human, relapsed/refractory NHL","concentration not given, all TEAEs, grade 5",,Constipation incidence,0%
Clc1ccc(-c2ccc(Cl)c(Cl)c2Cl)c(Cl)c1Cl,,,polyethylene-water partitioning,PCB compilation,reference: maximum over minimum K,literature range factor,2
CC(C)(C)c1cc(-n2nc3ccccc3n2)c(O)c(C(C)(C)C)c1,,,human aged 6-11 years,"concentration not given, spray sunscreen, 95th percentile",,daily dermal exposure dose,19.1 ng/kg/day
O=[N+]([O-])c1ccc2c(c1)S(=O)(=O)C=C2,,,"male C57BL/6 mice, blood","intraperitoneal, 20 mg/kg, day 8, group average",,red cell distribution width SD,29.5 fL
O=C([O-])CN1CCN(CC(=O)[O-])CCN(CC(=O)NCC2CCC(C(=O)N[C@@H](Cc3ccc4ccccc4c3)C(=O)NCCCC[C@H](NC(=O)N[C@@H](CCC(=O)O)C(=O)O)C(=O)O)CC2)CCN(CC(=O)[O-])CC1.[177Lu+3] (some centres unmarked),,,"BALB/c mouse, blood",intravenous,,elimination half-life,0.404 h
COc1cc2c(cc1OC)CN(CCc1ccc(NC(=O)c3cccc4c(=O)c5cccc(OC)c5[nH]c34)cc1)CC2,,,"CD-1 mouse, male, plasma","intraperitoneal, 0.3 mg/kg",,Tmax,2 h
Clc1cc(Cl)c(-c2cc(Cl)ccc2Cl)c(Cl)c1,,,fresh water,"20 °C, S100 sampler, 100 µm",,log K(PDMS-water),5.99 ± 0.04
CCc1ccc(CC/C=C/c2ccc3c(c2)C(=O)CC3)cc1,,,"Sprague-Dawley rat, male","oral, 120 mg/kg/day, 14 days",,Glucose,4.63 mM
CC(C)C[C@@H]1NC(=O)CNC(=O)[C@H](CC(N)=O)NC(=O)[C@H](CCCNC(=N)N)NC(=O)[C@H]([C@@H](C)O)NC(=O)[C@@H]2CSSC[C@@H]3NC(=O)[C@H]([C@@H](C)O)NC(=O)CNC(=O)CNC(=O)[C@H](C(C)C)NC(=O)[C@@H]4CSSC[C@H](NC(=O)[C@H]([C@@H](C)O)NC(=O)[C@H](CSSC[C@H](NC(=O)[C@H](C(C)C)NC(=O)[C@@H]5CCCN5C1=O)C(=O)NCC(=O)N[C@@H](CCC(=O)O)C(=O)N[C@@H]([C@@H](C)O)C(=O)N4)NC(=O)CNC(=O)[C@@H]1CCCN1C(=O)[C@H](CCCCN)NC(=O)[C@H](CC(N)=O)NC3=O)C(=O)N[C@@H](CO)C(=O)N[C@@H](Cc1c[nH]c3ccccc13)C(=O)N1CCC[C@H]1C(=O)N[C@@H](C(C)C)C(=O)N2,,HPLC,ammonium bicarbonate 0.1 M,"180 µM, 7 days, pH 9.0, 37 °C, deamidation stability",,remaining peptide,72.3 ± 4.8%
C=C(C)[C@@H]1CCC(C)=C[C@H]1c1c(O)cc(CCCCC)cc1O,,,human,"750 mg, trial 17074, together with: rifampicin 600 mg",,subjects with Diarrhea,6%
CN1CC[C@@H](c2c(O)cc(O)c3c(=O)cc(-c4ccc(C(F)(F)F)cc4Cl)oc23)[C@@H]1CO,,item: Hypoalbuminemia,relapsed B-cell malignancies or AML,"oral, 100 mg, grade 3-4, continuous dosing",,patients with adverse event,0%
C[C@]1(CO)Cc2ncn(-c3ccc(C#N)c(Cl)c3)c2C(=O)O1,,,"healthy Japanese subjects, plasma","multiple doses, tau 24 h, range",,accumulation ratio of AUC(0-tau),1 to 1.08
O=S(=O)(Nc1ccccc1)c1ccc(NC(=S)Nc2ccccc2)cc1,,item: Glu,"female mouse, blood","oral, 20 mg/kg daily, 14 days",,blood chemistry level,178 mg/dL
CC[C@H](C)[C@@H]1NC(=O)[C@H](CCCNC(=N)N)NC(=O)C[C@@H](c2cccc3ccccc23)NC(=O)[C@@H]2CSSC[C@H](NC(=O)C[C@@H](c3cccc4ccccc34)NC(=O)[C@H](CCCNC(=N)N)NC(=O)[C@@H]3CCCN3C(=O)[C@@H]3CCCN3C1=O)C(=O)N[C@@H](Cc1ccccc1)C(=O)N1CCC[C@H]1C(=O)N[C@@H](CC(=O)O)C(=O)N[C@@H](CC(=O)O)C(=O)N[C@@H](Cc1ccccc1)C(=O)N2,,two-compartment model,athymic nude mice (Foxn1),"intravenous, 6 mg/kg",,terminal half-life,> 40 h
Cc1ccc(S(=O)(=O)Nc2c(N[C@H]3CC[C@H](NC(=O)Nc4ccc(F)c(Cl)c4)CC3)c(=O)c2=O)cc1,,,"rat, plasma","intravenous, 10 mg/kg",,volume of distribution,12.3 L
CC1(COc2ccc3c(c2)ncn3-c2ccc3cccc(N4CCC(N)CC4)c3n2)COC1,,,"human, recurrent HGG or DIPG","oral, 100 mg/m2",,lymphocyte count decrease grade,0
CC(C)C[C@@H]1NC(=O)CNC(=O)[C@H](CC(N)=O)NC(=O)[C@H](CCCNC(=N)N)NC(=O)[C@H](CCCCN)NC(=O)[C@@H]2CSSC[C@@H]3NC(=O)[C@H]([C@@H](C)O)NC(=O)CNC(=O)CNC(=O)[C@H](C(C)C)NC(=O)[C@@H]4CSSC[C@H](NC(=O)[C@H]([C@@H](C)O)NC(=O)[C@H](CSSC[C@H](NC(=O)[C@H](C(C)C)NC(=O)[C@@H]5CCCN5C1=O)C(=O)NCC(=O)N[C@@H](CCC(=O)O)C(=O)N[C@@H]([C@@H](C)O)C(=O)N4)NC(=O)CNC(=O)[C@@H]1CCCN1C(=O)[C@H]([C@@H](C)O)NC(=O)[C@H](CC(N)=O)NC3=O)C(=O)N[C@@H](CO)C(=O)N[C@@H](Cc1c[nH]c3ccccc13)C(=O)N1CCC[C@H]1C(=O)N[C@@H](C(C)C)C(=O)N2,,HPLC,ammonium bicarbonate 0.1 M,"180 µM, 7 days, pH 9.0, 37 °C, deamidation stability",,remaining peptide,44.1 ± 2.7%
C[C@@H](NC(=O)N1C(=O)[C@H](Cc2ccnc(N)c2)[C@H]1C(=O)O)C1CCCCC1,,,healthy adult Chinese volunteers,"continuous intravenous infusion, 0.3 mg/kg/h, 5-day infusion, CTCAE 5.0 grading",,incidence of administration site extravasation,0%
CNC(=O)[C@@H](NC(=O)c1cc(OCC2(C)COC2)c(C2CC2)cn1)C(C)(C)C,,,C57BL/6 mice,"oral, 2.8 mg/kg",,dose-normalised AUC(0-inf),70 kg·ng·h/mL/mg
COc1cccc2c1CCCC2CCCN1CCN(C2CCCCC2)CC1 (centres unmarked),,,"CD-1 mouse, male, lung","intraperitoneal, 3 mg/kg",,elimination rate constant,8.92e-05 s⁻¹
CC[C@H](C)[C@H](NC(=O)[C@H](Cc1ccc(O)cc1)NC(=O)[C@@H]1CCCN1C(=O)[C@H](CCCNC(=N)N)NC(=O)[C@@H](N)CCCNC(=N)NC(=O)NCCOCCOCC[n+]1c(C)cc(/C=C/C=C/c2ccc(N(C)C)cc2)cc1C)C(=O)N[C@@H](CC(C)C)C(=O)O,,,PBS with 1% BSA,,reference: cresyl violet perchlorate,fluorescence quantum yield,34%
C=CC(=O)N1CC[C@H](n2nc(C#Cc3cc(OC)cc(OC)c3)c3c(N)ncnc32)C1,,,patients with advanced solid tumours,"oral, dose not given, Vomiting, any grade, QD, all patients",,adverse drug reaction incidence,18.6%
Nc1nc2cc(-c3ccc4ncc(C(=O)N5CCOCC5)n4c3)ccc2o1,,"item: Hyperglycemia, any cause, grade ≥3",patients with advanced solid tumours,dose not given,,patients with adverse events,7%
O=C1Nc2cc3[nH]nc(-c4ccncc4)c3cc2CN1Cc1ccccc1,,CTCAE v4.03,advanced solid tumour patients,"intravenous, 1.8 mg/kg, schedules 1/2",,patients with constipation,0%
O=C(Nc1ccccc1)C1CCN(C(=O)Oc2cccnc2)CC1,,adverse event reporting,healthy women,"oral, 100 mg, 9 days",,subjects with chest discomfort,7.7%
Cc1cccc(Cn2nc(C3CC3)c3c(NC(=O)c4cnc5cc(OCCN6CCN(C)CC6)ccn45)cccc32)n1,,item: Constipation,human platinum-resistant ovarian cancer,"oral, dose not given, all-causality",,adverse events incidence,27.3%
COc1ncnn2ccc(-c3cnc4nc(C)n(Cc5nnc([C@@H](C)F)o5)c4c3)c12,,,human patients,"oral, dose not given, all-grade adverse drug reaction",,incidence of Hyponatremia,21.4%

# Some of these lines once more:
Structure (SMILES),tested on,test,test system,conditions,how to read,measurement,result
CC[C@H]1[C@@H](O)[C@@H]2[C@H](CC[C@]3(C)[C@@H]([C@H](C)CCNC(=O)NS(=O)(=O)c4ccc(C(C)(C)C)cc4)CC[C@@H]23)[C@@]2(C)CC[C@@H](O)C[C@@H]12,,,human,"dose not given, with oral contraceptive",,subjects with TEAEs,45.2%
CNC(=O)[C@@H](NC(=O)c1cc(OCC2(C)COC2)c(C2CC2)cn1)C(C)(C)C,,,C57BL/6 mice,"oral, 2.8 mg/kg",,dose-normalised AUC(0-inf),70 kg·ng·h/mL/mg
C[C@]1(CO)Cc2ncn(-c3ccc(C#N)c(Cl)c3)c2C(=O)O1,,,"healthy Japanese subjects, plasma","multiple doses, tau 24 h, range",,accumulation ratio of AUC(0-tau),1 to 1.08
CC(C)(C)c1cc(-n2nc3ccccc3n2)c(O)c(C(C)(C)C)c1,,,human aged 6-11 years,"concentration not given, spray sunscreen, 95th percentile",,daily dermal exposure dose,19.1 ng/kg/day
CNCCC(Oc1ccccc1OC)c1ccccc1 (centres unmarked),Plasmodium falciparum,,3D7,,,IC50,12.6 µM
O=C(Nc1ccccc1)C1CCN(C(=O)Oc2cccnc2)CC1,,adverse event reporting,healthy women,"oral, 100 mg, 9 days",,subjects with chest discomfort,7.7%
